Results from different studies.
Protocols differ between the studies behind these lines. “And” joins repeats or separate records; there may be more than shown. ± marks the error that the study gave.

O=C(Nc1nc2cccc(-c3ccc(CN4CCS(=O)(=O)CC4)cc3)n2n1)C1CC1 — result for “patients with Somnolence”: 8.3% (rheumatoid arthritis patients; oral, 100 mg twice daily, 4 weeks, TEAE regardless of relatedness).
Under “severe TEAE incidence”, CC(C)c1nc(N(C)S(C)(=O)=O)nc(-c2ccc(F)cc2)c1/C=C/[C@@H](O)C[C@@H](O)CC(=O)O is recorded as 0% (healthy human volunteers; oral, 10 mg, 6 days, monotherapy; reference: subjects).
CN1C[C@H](COc2nccc3c(NCc4ccco4)cc(Cl)nc23)OC1=O gave a tissue/plasma ratio of ~0.75 (C57BL/6 mice; oral, 30 mg/kg, 0.5 h; reference: heart over plasma).
For O=C(O)CCC(=O)O.[2H]C([2H])([2H])Oc1cc(C)c2[nH]ccc2c1CN1CC[C@@H](C2CC2)C[C@H]1c1ccc(C(=O)O)cc1, “subjects with drug-related TEAE” read 37.5% (healthy Chinese subjects; 100 mg twice daily, multiple ascending dose).
O=C(O)c1cc(O)cc(O)c1 gave a plasma concentration of 992 nM (human plasma; median, both sexes).
With Cc1nc2ccc(OCc3ccc(C(F)(F)F)cc3)cc2[nH]1 the tissue/plasma ratio was 4.9 ± 1.6 (male Balb/c mice, kidney; oral, 10 mg/kg, 72 h; reference: tissue over plasma).
FC(F)(F)c1ccc(CNc2ccc(Cc3c[nH]c4ncc(Cl)cc34)cn2)cn1: “treatment-related adverse events” 43% (measured: Nausea; patients with advanced solid tumours, all cohorts; oral, 1000 mg/day, any grade).
For O=C(COc1ccc(Cl)cc1)NC12CC(c3nnc([C@H]4C[C@@H](OC(F)(F)F)C4)o3)(C1)C2, “postural dizziness participants” read 16.7% (human both sexes; oral, 45 mg single dose).
For Cc1c2oc3c(C)ccc(C(=O)N[C@@H]4C(=O)N[C@H](C(C)C)C(=O)N5CCC[C@H]5C(=O)N(C)CC(=O)N(C)[C@@H](C(C)C)C(=O)O[C@@H]4C)c3nc-2c(C(=O)N[C@@H]2C(=O)N[C@H](C(C)C)C(=O)N3CCC[C@H]3C(=O)N(C)CC(=O)N(C)[C@@H](C(C)C)C(=O)O[C@@H]2C)c(N)c1=O, “minimum plasma concentration” read 3.3 µg/L (LC-MS; children with cancer, plasma; dose not given, 1 h).
Cc1c(C(=O)O)ccc2c3n(nc12)[C@@H]1[C@H](C3)N(CC2CC2)[C@@]2(C(=O)Nc3cc(Cl)ccc32)[C@H]1c1cccc(Cl)c1F — result for “back pain incidence”: 16.7% (human patients phase Ia; oral, dose not given, all grades, all patients).
CCc1cc(C(=O)NC)c2nccc(N3CCc4c(cc(Cn5ccnc5)cc4-c4cn(C)nc4C(F)(F)F)C3=O)c2c1: “change in clinical chemistry or haematology parameter” -6.64% (measured: Neut; Sprague Dawley rat; oral, 50 mg/kg once daily, 7 days; reference: vehicle).
The Tmax of CCOc1c([C@H](C)n2nc(C)c3c(N)ncnc32)cc(Cl)c(F)c1[C@@H]1CNC(=O)C1 is reported as 1 h (patients with B-cell malignancies, plasma; oral, 30 mg, day 15, monotherapy).
N#C/C(=C\c1ccc(-c2cc(Cl)ccc2Cl)o1)C(=O)Nc1cccc2ncccc12 gave a viability of 88% (OCI-Ly1; 0.1 µM, 120 h).
O=C(N[C@H](CO)[C@H](O)c1ccc([N+](=O)[O-])cc1)C(Cl)Cl gave an amount permeated of 3.5 nmol (starch gel membrane permeability; Gram-negative envelope surrogate; 200 µM, 45 min, pH 7.4).
The serum concentration of COc1ccc2c3c([nH]c2c1)[C@H](CC(C)C)N1C(=O)[C@H](CC(=O)NC(C)C)NC(=O)[C@@H]1C3 is reported as 0 nM (wild-type mouse, male, serum; oral, 100 mg/kg, 0 h).
For CN[C@H](CC(C)C)C(=O)N[C@H]1C(=O)N[C@@H](CC(N)=O)C(=O)N[C@H]2C(=O)N[C@H]3C(=O)N[C@H](C(=O)N[C@H](C(=O)O)c4cc(O)cc(O)c4-c4cc3ccc4O)[C@H](O)c3ccc(c(Cl)c3)Oc3cc2cc(c3O[C@@H]2O[C@H](CO)[C@@H](O)[C@H](O)[C@H]2O[C@H]2C[C@](C)(N)[C@H](O)[C@H](C)O2)Oc2ccc(cc2Cl)[C@H]1O, “elimination rate constant” read 0.16 h⁻¹ (C57BL/6N mouse H1, faeces; po, 0.5 mL, 20 mg/mL solution).
CCCCOc1nc(N)c2c(n1)N(Cc1cccc(CN3CCCC3)c1)CC(=O)N2: “drug-related TEAE incidence” 0% (measured: blurred vision; human; oral, 2 mg).
O=C(O)/C=C/c1ccc(OS(=O)(=O)O)cc1 gave a plasma concentration of 143 nM (human plasma; mean).
Under “dP/dt at 50 change”, CNCCOC12CC3(C)CC(C)(CC(Cn4ncc(-c5ccc(N6CCc7cccc(C(=O)Nc8nc9ccccc9s8)c7C6)nc5C(=O)O)c4C)(C3)C1)C2 is recorded as -4% (beagle dog, male, anaesthetised; intravenous bolus, 0.03 mg/kg, 105 min; reference: baseline).
With NC[C@@H]1O[C@H](O[C@H]2[C@@H](O)[C@H](O[C@@H]3[C@@H](O)[C@H](N)C[C@H](N)[C@H]3O[C@H]3O[C@H](CO)[C@@H](O)[C@H](O)[C@H]3N)O[C@@H]2CO)[C@H](N)[C@@H](O)[C@@H]1O the body weight was 24.2 g and 22.7 g and 23.1 g and 23 g and 20.4 g and 23.3 g and 21.6 g and 22.2 g (NSG mice; dose not given, day 6 of treatment).
COc1cc([C@@H]2c3cc4c(cc3[C@@H](O[C@@H]3O[C@@H]5CO[C@@H](C)O[C@H]5[C@H](O)[C@H]3O)[C@H]3COC(=O)[C@H]23)OCO4)cc(OC)c1O gave a viability of 6.18% (OCI-Ly1; 0.5 µM, 120 h).
For CNC(=O)c1ccc(-c2cnc3ncc(Cc4ccc5ncccc5c4)n3n2)cc1F, “patients with adverse event” read 9% (measured: Anemia, all grades; hepatocellular carcinoma patients; oral, 600 mg twice daily, expansion cohort, any causality).
